Measurements pooled from the literature.
Compare with care: the assays were run in different laboratories. Values joined by “and” are separate records of one study, mostly repeats; a detail may differ. ± gives the spread as reported.
Sequence of UniProt P02769 (whole entry, looked up): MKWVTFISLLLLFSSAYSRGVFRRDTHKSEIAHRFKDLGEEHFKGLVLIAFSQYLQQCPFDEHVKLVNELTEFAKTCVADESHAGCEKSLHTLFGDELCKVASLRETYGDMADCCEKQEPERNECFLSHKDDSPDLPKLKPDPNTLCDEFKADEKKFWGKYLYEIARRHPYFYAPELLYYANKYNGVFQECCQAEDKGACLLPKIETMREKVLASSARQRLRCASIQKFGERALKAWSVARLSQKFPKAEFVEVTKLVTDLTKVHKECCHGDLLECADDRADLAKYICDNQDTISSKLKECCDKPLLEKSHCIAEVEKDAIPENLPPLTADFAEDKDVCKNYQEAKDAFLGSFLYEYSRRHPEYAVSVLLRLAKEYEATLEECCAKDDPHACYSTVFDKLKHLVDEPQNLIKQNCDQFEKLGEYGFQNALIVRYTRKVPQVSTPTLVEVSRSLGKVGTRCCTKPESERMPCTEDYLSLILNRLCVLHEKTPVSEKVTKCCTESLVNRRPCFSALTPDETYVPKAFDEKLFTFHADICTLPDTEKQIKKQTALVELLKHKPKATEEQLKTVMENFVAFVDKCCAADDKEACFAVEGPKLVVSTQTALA

| SMILES | target or system | assay | system | conditions | scale | quantity | value |
| --- | --- | --- | --- | --- | --- | --- | --- |
| CC[C@H](C)[C@@H]1NC(=O)[C@H](Cc2ccc(O)cc2)NC(=O)CCCSC[C@@H](C(=O)N(CC(=O)N[C@@H](CC(C)C)C(=O)NCC(N)=O)Cc2ccc(F)cc2)NC(=O)[C@H](CC(N)=O)NC(=O)[C@H](CCC(N)=O)NC1=O | – | – | healthy human females, plasma | intranasal, 200 µg single dose | – | AUC(0-last) | 0.056 ng·h/mL |
| O=C([O-])CN1CCN(CC(=O)[O-])CCN(Cc2cccc(C(=O)[O-])n2)CC1.[18F-].[Sc+3] | – | – | mouse, kidney | intravenous, 1 h | – | tracer uptake | 3.16 %ID/g |
| CN(C)C=Nc1nc(-c2ccccc2)nc2c1c(Nc1ccc(F)cc1)nn2C | HeLa Ohio | – | – | 72 h | – | CC50 | > 128 µM |
| O=C1NC2(CC2)COc2ncc(F)cc2[C@H]2COCCN2c2ccn3ncc1c3n2 | Salmonella typhimurium | Ames test | TA1535 | 1500 µg/plate, 48 h, with: without S9 | – | revertant colonies | 8 ± 2 revertants/plate |
| Cc1ccc(Nc2n[nH]c3nc(-c4ccncc4)nc(N)c23)cc1 | HeLa Ohio | – | – | 72 h | – | CC50 | > 158 µM |
| O=C1C2CC3CC1CC(C(=O)N1CCN(c4ccc([N+](=O)[O-])c5ncccc45)CC1)(C3)C2 | Salmonella typhimurium | Ames test | TA98 | 0.31 µg/well, without S9 | reference: vehicle | revertant fold increase | 1.6 |
| N#C[C@@H]1CCCN1C(=O)CNC(=O)c1ccnc2ccc(OCCCN3CCN(C(=O)CCc4ccc(O)c(CN5CCN6CC(=O)[O][Al-]([18F])([O]C(=O)C5)[O]c5ccc(CCC(=O)N7CCN(CCCOc8ccc9nccc(C(=O)NCC(=O)N%10CCC[C@H]%10C#N)c9c8)CC7)cc5C6)c4)CC3)cc12 (some centres unmarked) | U-87 MG tumour model | – | host not given, pancreas | 2 h, tumour-bearing | – | tracer uptake | 2.24 %ID/g |
| N#C[C@@H]1CC(F)(F)CN1C(=O)CNC(=O)c1ccnc2c(NC(=O)CCOCCOCCOCCOCCOCCOCCNC(=O)[C@H](CCCCNC(=O)CN3CCN(CC(=O)[O-])CCN(CC(=O)[O-])CCN(CC(=O)[O-])CC3)NC(=O)CCCc3ccc(I)cc3)cccc12.[177Lu+3] | U-87 MG tumour model | – | host not given, heart | 1 h, tumour-bearing | – | tracer uptake | 1.68 %ID/g |
| Fc1ccc(Nc2n[nH]c3nc(-c4ccccc4)nc(NCc4ccccc4)c23)cc1 | HeLa Ohio | – | – | 72 h | – | CC50 | > 122 µM |
| COc1cccc(OC)c1-c1cc(C(=O)NC2(C(=O)O)C3CC4CC(C3)CC2C4)nn1-c1ccc(C(=O)N(C)CCCN(C)CCCN(C)C(=O)[C@H](CCCCNC(=O)[C@H](CC(C)C)NC(=O)C2OC2C(=O)O)NC(=O)CN2CCN(CC(=O)[O-])CCN(CC(=O)[O-])CCN(CC(=O)[O-])CC2)cc1C(C)C.[177Lu+3] (mixture of isomers) | HT-29 tumour model | – | host not given, stomach | 24 h, tumour-bearing | – | tracer uptake | 0.37 %ID/g |
| CNC(=O)C1CCCN(C(=O)C2CC3CCC2N3C(=O)[C@@H]2C[C@@H](O)CN2C(=O)NCc2cccc(Cl)c2F)C1 (mixture of isomers) | CYP3A4 (human) | inhibitor, time-dependent inhibition | – | 50 µM, preincubated with NADPH, with: testosterone substrate | reference: negative control | remaining activity | 97.2% |
| COc1cccc(OC)c1-c1cc(C(=O)NC2(C(=O)O)C3CC4CC(C3)CC2C4)nn1-c1ccc(C(=O)NCCNC(=O)[C@H](CCCCNC(=O)[C@H](CC(C)C)NC(=O)C2OC2C(=O)O)NC(=O)CN2CCN(CC(=O)[O-])CCN(CC(=O)[O-])CCN(CC(=O)[O-])CC2)cc1C(C)C.[177Lu+3] (mixture of isomers) | HT-29 tumour model | – | host not given, stomach | 24 h, tumour-bearing | – | tracer uptake | 0.2 %ID/g |
| CN(Cc1ccccc1)C(=O)CN1CCN(CC(=O)[O-])CCN(Cc2cccc(C(=O)[O-])n2)CC1.[177Lu+3] | – | – | mouse, spleen | intravenous, 1 h | – | tracer uptake | 0.33 %ID/g |
| CCN(CC)CC#CCNc1ccnc2cc(Cl)ccc12 | Salmonella typhimurium | mini-Ames test | TA1535 | 250.0 µg/well, with rat liver S9 | – | revertants per well | 2 |
| CN(C)c1ccc2c(c1)C(C)(C)c1cc(N(C)C)ccc1C21OC(=O)c2ccc(C(=O)O)cc21 | Albumin (ALB, Bos taurus, UniProt P02769) | binding, fluorescence titration | PBS | – | – | Kd | 51 ± 5 µM |
| Nc1nc(-c2ccccc2)nc2[nH]nc(Nc3ccc(F)cc3)c12 | HeLa Ohio | – | – | 72 h | – | CC50 | 138 µM |
| CN(Cc1ccccc1)C(=O)CN1CCN(CC(=O)[O-])CCN(CC(=O)[O-])CC1.[44Sc+3] | – | – | BALB/c mouse, urine | intravenous, 1 h | – | uptake | 356 ± 248 %ID/g |
| OC(Cc1cc(-c2ccc(C(O)C(F)(F)F)s2)sc1-c1ccc(-c2sc(-c3ccc(C(O)C(F)(F)F)s3)cc2CC(O)C(F)(F)F)s1)C(F)(F)F (centres unmarked) | primary human fetal neurons | LC-MS/MS | – | 4 µM, 60 min, replicate 1 | – | amount in extracellular wash | 0.1 nmol and 0.13 nmol |
| O=C(Nc1cnccc1-c1ccc([18F])nc1)c1ccnc(NC(=O)C2CC2)c1 | – | – | mice, transgenic, GSK-3β, early-stage, skin | intravenous, dose not given, 120 min, with: tariquidar 15 mg/kg i.v. pre-dose | – | SUV | 0.103 |
| C/C(N)=N/C(=N\S(=O)(=O)c1ccc(C(F)(F)F)cc1)N1C[C@H](c2ccccc2)C(c2ccc(Cl)cc2)=N1 | – | – | C57BL/6 mouse male, adipose tissue | intravenous, 10 mg/kg | – | AUC(0-inf) | 59300 ng·h/mL |
| N#C[C@@H]1CC(F)(F)CN1C(=O)CNC(=O)c1ccnc2c(NC(=O)[C@@H](N)CCCCNC(=O)CCOCCOCCOCCOCCOCCOCCNC(=O)CN3CCN(CC(=O)[O-])CCN(CC(=O)[O-])CCN(CC(=O)[O-])CC3)cccc12.[177Lu+3] | U-87 MG tumour model | – | host not given, liver | 48 h, tumour-bearing | – | tracer uptake | 0.17 %ID/g |
| CN(C)c1nc(-c2ccccc2)nc2[nH]nc(Nc3ccc(F)cc3)c12 | HeLa Ohio | – | – | 72 h | – | CC50 | > 144 µM |
| Nc1nc2cc(C(=O)c3ccc(F)cc3)ccc2[nH]1 | Salmonella typhimurium | Ames preincubation test | TA100 | 9.8 µg per plate, 3 days, without S9 | – | revertants | 125 revertants per plate |
| CCOc1ccc(Nc2n[nH]c3nc(-c4ccccc4)nc(N)c23)cc1 | HeLa Ohio | – | – | 72 h | – | CC50 | > 144 µM |
| C=C(NC(=O)c1csc(-c2nc3c(cc2O)-c2nc(cs2)C(=O)NC(C(C)O)C(=O)NC(=C(C)OC)c2nc(cs2)C(=O)NC2c4nc(cs4)C(=O)NC(COC(=O)c4c5c6c(cccc6n4O)COC(=O)C(OC4CC(C)(O)C(N(C)C)C(C)O4)C2OC5)c2nc-3cs2)n1)C(N)=O (centres unmarked) | – | – | Sprague-Dawley rats, female, plasma | intravenous infusion, 6 mg/kg, day 1, multiple dosing | – | AUC(0-t) | 2050 ng·h/mL |
| Nc1nc(-c2ccccc2)nc2[nH]nc(Nc3cccc(C(F)(F)F)c3)c12 | HeLa Ohio | – | – | 72 h | – | CC50 | 32.4 µM |
| CC(C)OCCOCc1ccc(OCC(O)CN(N=O)C(C)C)cc1 (centres unmarked) | Salmonella typhimurium | Ames test | TA100 | 50 µg/plate, 30 % rat S9 | reference: solvent control | revertant fold increase | 0.8 fold |
| CCc1ccc(-c2nc(N)c3c(Nc4ccccc4)n[nH]c3n2)cc1 | HeLa Ohio | – | – | 72 h | – | CC50 | > 151 µM |
| CC(C)Cc1ccc(C(C)C(=O)N[C@@H](CCCCNC(=O)CCOCCOCCOCCOCCOCCOCCNC(=O)CN2CCN(CC(=O)[O-])CCN(CC(=O)[O-])CCN(CC(=O)[O-])CC2)C(=O)Nc2cccc3c(C(=O)NCC(=O)N4CC(F)(F)C[C@H]4C#N)ccnc23)cc1.[177Lu+3] (some centres unmarked) | U-87 MG tumour model | – | host not given, liver | 1 h, tumour-bearing | – | tracer uptake | 8.67 %ID/g |

Excerpt of the above:
| SMILES | target or system | assay | system | conditions | scale | quantity | value |
| --- | --- | --- | --- | --- | --- | --- | --- |
| Nc1nc(-c2ccccc2)nc2[nH]nc(Nc3ccc(F)cc3)c12 | HeLa Ohio | – | – | 72 h | – | CC50 | 138 µM |
| OC(Cc1cc(-c2ccc(C(O)C(F)(F)F)s2)sc1-c1ccc(-c2sc(-c3ccc(C(O)C(F)(F)F)s3)cc2CC(O)C(F)(F)F)s1)C(F)(F)F (centres unmarked) | primary human fetal neurons | LC-MS/MS | – | 4 µM, 60 min, replicate 1 | – | amount in extracellular wash | 0.1 nmol and 0.13 nmol |
| CN(C)c1nc(-c2ccccc2)nc2[nH]nc(Nc3ccc(F)cc3)c12 | HeLa Ohio | – | – | 72 h | – | CC50 | > 144 µM |
